{"data": "Published values pooled from the literature", "note": "Numbered parts are unrelated; each lists some results of a single study. Positions count from the first letter of the parent shown."}
{"data": "Study 1", "target": "CCND3, cyclin fold, Cln2 fusion (human)", "technique": "yeast growth competition, sequencing", "matrix": "yeast", "setting": "weak parent motif", "relative to": "not given", "direction": "higher = stronger binding", "parent": "viral docking peptide; TSVRRALFTGGSD"}
{"Change": "TSVRRADFTGGSD [L7D]", "normalised enrichment score": -0.0497}
{"Change": "TVVRRALFTGGSD [S2V]", "normalised enrichment score": -0.151}
{"Change": "TSVRPALFTGGSD [R5P]", "normalised enrichment score": -0.138}
{"Change": "TSVRRAHFTGGSD [L7H]", "normalised enrichment score": -0.0621}
{"Change": "TSVRRALFCGGSD [T9C]", "normalised enrichment score": -0.0546}
{"Change": "ASVRRALFTGGSD [T1A]", "normalised enrichment score": 0.168}
{"Change": "TSVRRALFLGGSD [T9L]", "normalised enrichment score": 0.0761}
{"Change": "TSVRRALFTGYSD [G11Y]", "normalised enrichment score": -0.35}
{"Change": "TSVPRALFTGGSD [R4P]", "normalised enrichment score": 0.0318}
{"Change": "TSDRRALFTGGSD [V3D]", "normalised enrichment score": -0.0739}
{"Change": "TSVRRALFTGGRD [S12R]", "normalised enrichment score": 0.417}
{"Change": "TSVHRALFTGGSD [R4H]", "normalised enrichment score": -0.476}
{"Change": "TSVRRALATGGSD [F8A]", "normalised enrichment score": 0.109}
{"Change": "TSVLRALFTGGSD [R4L]", "normalised enrichment score": -0.0843}
{"Change": "TSVRRALPTGGSD [F8P]", "normalised enrichment score": 0.076}
{"Change": "TSVRRALFTGGWD [S12W]", "normalised enrichment score": -0.0359}
{"Change": "TSVRRTLFTGGSD [A6T]", "normalised enrichment score": 0.0324}
{"Change": "TSVRRALFTGGHD [S12H]", "normalised enrichment score": -0.119}
{"Change": "TSVRRALWTGGSD [F8W]", "normalised enrichment score": -0.0162}
{"Change": "TLVRRALFTGGSD [S2L]", "normalised enrichment score": 0.387}
{"Change": "TSARRALFTGGSD [V3A]", "normalised enrichment score": 0.0758}
{"Change": "TSVMRALFTGGSD [R4M]", "normalised enrichment score": 0.0163}
{"Change": "TSVRRALFTGKSD [G11K]", "normalised enrichment score": 0.616}
{"Change": "TSVRRAQFTGGSD [L7Q]", "normalised enrichment score": -0.255}
{"Change": "TSVRFALFTGGSD [R5F]", "normalised enrichment score": 0.0448}
{"data": "Study 2", "target": "tungstate, free oxyanion", "technique": "microfluidic competitive inhibition", "matrix": "in vitro, cell-free expressed", "concentration": "not given", "setting": "derived from inhibition constants, unchanged parent 2230 nM", "direction": "lower = stronger binding", "parent": "PafA, mature enzyme, eGFP fusion (Elizabethkingia meningoseptica, UniProt Q9KJX5); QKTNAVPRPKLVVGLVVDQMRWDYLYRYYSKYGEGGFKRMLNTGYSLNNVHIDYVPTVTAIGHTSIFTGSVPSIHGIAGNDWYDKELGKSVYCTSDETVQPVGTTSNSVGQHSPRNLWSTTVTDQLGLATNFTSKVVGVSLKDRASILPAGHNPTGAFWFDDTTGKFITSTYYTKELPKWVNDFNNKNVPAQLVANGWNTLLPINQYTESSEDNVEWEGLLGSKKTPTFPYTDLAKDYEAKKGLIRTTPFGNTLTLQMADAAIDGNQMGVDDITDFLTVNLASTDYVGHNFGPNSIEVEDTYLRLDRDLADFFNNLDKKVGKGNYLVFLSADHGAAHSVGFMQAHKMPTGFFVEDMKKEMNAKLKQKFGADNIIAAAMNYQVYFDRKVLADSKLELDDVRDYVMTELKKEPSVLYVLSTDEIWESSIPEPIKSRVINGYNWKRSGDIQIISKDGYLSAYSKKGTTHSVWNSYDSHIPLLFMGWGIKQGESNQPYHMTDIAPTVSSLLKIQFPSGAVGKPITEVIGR"}
{"Change": "E86V", "oxyanion analog dissociation constant [µM]": 2.01}
{"Change": "V327A", "oxyanion analog dissociation constant [µM]": 2.07}
{"Change": "Y231V", "oxyanion analog dissociation constant [µM]": 2.03}
{"Change": "S95V", "oxyanion analog dissociation constant [µM]": 4.95}
{"Change": "N107G", "oxyanion analog dissociation constant [µM]": 2.36}
{"Change": "I450G", "oxyanion analog dissociation constant [µM]": 1.1}
{"Change": "F312G", "oxyanion analog dissociation constant [µM]": 1.49}
{"Change": "F368G", "oxyanion analog dissociation constant [µM]": 2.15}
{"Change": "R21V", "oxyanion analog dissociation constant [µM]": 2.49}
{"Change": "Y402G", "oxyanion analog dissociation constant [µM]": 2.12}
{"Change": "Y28G", "oxyanion analog dissociation constant [µM]": 1.1}
{"Change": "S425V", "oxyanion analog dissociation constant [µM]": 2.25}
{"Change": "A262V", "oxyanion analog dissociation constant [µM]": 2.18}
{"Change": "L11G", "oxyanion analog dissociation constant [µM]": 1.54}
{"Change": "N361V", "oxyanion analog dissociation constant [µM]": 1.94}
{"Change": "D271V", "oxyanion analog dissociation constant [µM]": 1.63}
{"Change": "T121V", "oxyanion analog dissociation constant [µM]": 1.01}
{"Change": "K409V", "oxyanion analog dissociation constant [µM]": 2.12}
{"Change": "L11V", "oxyanion analog dissociation constant [µM]": 2}
{"Change": "L254G", "oxyanion analog dissociation constant [µM]": 1.55}
{"Change": "L281G", "oxyanion analog dissociation constant [µM]": 1.53}
{"Change": "V12A", "oxyanion analog dissociation constant [µM]": 2.33}
{"Change": "G482A", "oxyanion analog dissociation constant [µM]": 2.71}
{"Change": "I422G", "oxyanion analog dissociation constant [µM]": 1.38}
{"Change": "K224G", "oxyanion analog dissociation constant [µM]": 1.87}
{"data": "Other studies, line by line"}
{"Substance": "TAPFYPPAYFI", "assay": "Ni-NTA bead binding, phage display NGS", "system": "peptide, phage-displayed 11-mer library", "setting": "concentration not given, with: Ni-NTA beads", "how to read": "relative to: input library", "measurement": "enrichment fold change", "value": 2}
{"Substance": "HSP90AB1 (Homo sapiens, UniProt P08238)", "tested on": "HSP90AB2P (Homo sapiens, UniProt Q58FF8)", "assay": "cross-linking MS", "setting": "hits only", "measurement": "interaction screen", "value": "cross-linked"}
{"Substance": "TAPFYPPAYEI", "assay": "Ni-NTA bead binding, phage display NGS", "system": "peptide, phage-displayed 11-mer library", "setting": "concentration not given, with: Ni-NTA beads", "how to read": "relative to: input library", "measurement": "enrichment fold change", "value": 1.71}
{"note": "Excerpt of the above (study 1):"}
{"Change": "TVVRRALFTGGSD [S2V]", "normalised enrichment score": -0.151}
{"Change": "TSVRPALFTGGSD [R5P]", "normalised enrichment score": -0.138}
{"Change": "TSVRRAHFTGGSD [L7H]", "normalised enrichment score": -0.0621}
{"Change": "TSVRRALFCGGSD [T9C]", "normalised enrichment score": -0.0546}
{"Change": "ASVRRALFTGGSD [T1A]", "normalised enrichment score": 0.168}
